{"data": "Earlier results as cited in several papers", "note": "Numbered parts are unrelated; values within a part may stem from several laboratories."}
{"data": "Block 1", "organism": "Toxoplasma gondii", "observed": "parasite growth", "concentration": "concentration not given", "setting": "drug repurposing screen"}
{"Compound": "CC1=C(/C=C/C(C)=C/C=C/C(C)=C/C(=O)O)C(C)(C)CCC1", "activity class": "inactive"}
{"Compound": "CCOC(=O)C1=C(C)NC(C)=C(C(=O)OC)C1c1cccc([N+](=O)[O-])c1 (stereo not shown)", "activity class": "inactive"}
{"Compound": "CC(C)NCC(O)COc1ccc(CC(N)=O)cc1 (stereo not shown)", "activity class": "inactive"}
{"Compound": "CC(C)C[C@H](NC(=O)[C@@H](O)[C@H](N)Cc1ccccc1)C(=O)O", "activity class": "inactive"}
{"Compound": "CN1[C@@H]2CC[C@H]1C[C@@H](OC(=O)c1c[nH]c3ccccc13)C2", "activity class": "inactive"}
{"Compound": "CC[C@H](C)C(=O)O[C@H]1CCC=C2C=C[C@H](C)[C@H](CC[C@@H]3C[C@@H](O)CC(=O)O3)[C@H]21", "activity class": "inactive"}
{"data": "Other studies, line by line"}
{"Structure (SMILES)": "CN1CCN(c2ccnc(NCCc3ccccc3)n2)CC1", "target or system": "O-GlcNAcase human", "endpoint": "IC50", "value": "> 10 µM"}
{"Structure (SMILES)": "CCCCCCCCNC(C)C(O)c1ccc(SC(C)C)cc1 (stereo not shown)", "target or system": "MCF7", "assay": "microarray, measured: BHLHE40", "conditions": "concentration not given", "how to read": "relative to: DMSO", "endpoint": "mRNA fold change", "value": 2.92}
{"Structure (SMILES)": "Cn1c(C2(NC(=O)c3ccc4c(C5CCCC5)c(-c5ncc(Br)cn5)n(C)c4c3)CCC2)nc2ccc(/C=C/C(=O)O)cc21", "target or system": "HCV NS5B", "assay": "biochemical", "endpoint": "IC50", "value": "0.019 µM"}
{"Structure (SMILES)": "CN(C)CC/C=C1/c2ccccc2Sc2ccc(Cl)cc21", "target or system": "MCF7", "assay": "microarray, measured: BTG1", "conditions": "concentration not given", "how to read": "relative to: DMSO", "endpoint": "mRNA fold change", "value": 2.34}
{"Structure (SMILES)": "CC[C@H](CC(=O)O)n1c(=O)c2ncccc2n(Cc2cn(C)c3cc(C)cc(C)c23)c1=O", "target or system": "CMA1", "assay": "biochemical activity", "endpoint": "IC50", "value": "0.0004 µM"}
{"Structure (SMILES)": "C=CC(=O)N1CCN(c2ncnc3c(F)c(-c4c(O)cccc4F)c(Cl)cc23)CC1", "target or system": "NCI-H358", "assay": "measured: phospho-ERK", "conditions": "2 h", "endpoint": "IC50", "value": "0.31 µM"}
{"Structure (SMILES)": "O=C(Cc1ccccc1)Nc1nnc(N2C[C@H]3C[C@@H]2CN3c2cccnn2)s1", "target or system": "GLS2", "assay": "enzyme activity", "endpoint": "IC50", "value": "> 30 µM"}
{"note": "Repeated from above (other studies, line by line):"}
{"Structure (SMILES)": "O=C(Cc1ccccc1)Nc1nnc(N2C[C@H]3C[C@@H]2CN3c2cccnn2)s1", "target or system": "GLS2", "assay": "enzyme activity", "endpoint": "IC50", "value": "> 30 µM"}
